Values quoted from earlier work as cited in several papers.
Protocols differ between the studies behind these lines. “And” joins repeats or separate records; there may be more than shown. ± marks the error that the study gave.

| SMILES | tested on | test | test system | conditions | measurement | value |
| --- | --- | --- | --- | --- | --- | --- |
| C=C[C@@H]1C[C@]1(NC(=O)[C@@H]1C[C@@H]2CN1C(=O)[C@H](C(C)(C)C)NC(=O)O[C@@H]1C[C@H]1CCCCCc1nc3ccc(OC)cc3nc1O2)C(=O)NS(=O)(=O)C1CC1 |  |  | plasma |  | unbound fraction | ~1% |
| NC1CCN(c2c(F)cc3c(=O)c(C(=O)O)cn(C4CC4)c3c2Cl)C1 (stereo not shown) |  |  | dog |  | fraction unbound | 0.398 |
| CC[C@H](C)C[C@H](C)CCCCCCCCC(=O)N[C@H]1C[C@@H](O)[C@@H](NCCN)NC(=O)[C@@H]2[C@@H](O)CCN2C(=O)[C@H]([C@H](O)CCN)NC(=O)[C@H]([C@H](O)[C@@H](O)c2ccc(O)cc2)NC(=O)[C@@H]2C[C@@H](O)CN2C(=O)[C@H]([C@@H](C)O)NC1=O |  |  | human |  | fraction excreted in faeces | < 1% |
| Cc1cccc2c1ccc1cc(C(C)C)ccc12 |  |  | zebrafish embryos, whole embryo | 585.75 ng/well, 48 hpf, single exposure | amount in tissue | 27.5 ng/well and 23.5 ng/well |
| CC(C)C[C@H](NC(=O)CNC(=O)[C@H](C)NC(=O)[C@H](CC(=O)O)NC(=O)[C@H](CC(=O)O)NC(=O)[C@H](C)NC(=O)[C@@H]1CCCN1C(=O)[C@H](CCCCN)NC(=O)CNC(=O)[C@@H]1CCCN1C(=O)[C@@H]1CCCN1C(=O)[C@@H]1CCCN1C(=O)[C@H](CCC(=O)O)NC(=O)CN)C(=O)N[C@H](C(=O)O)C(C)C |  |  | beagle dog | intravenous or intramuscular, dose not given | acute toxicity | not toxic |
| O=C(O)CCCc1ccc(N(CCCl)CCCl)cc1 |  |  | water |  | solubility | < 1000 µg/mL |
| CCN(CC)S(=O)(=O)N/C(=N/C)N1CC(c2cccnc2)C(c2ccc(Cl)cc2)=N1 (stereo not shown) | CB2 receptor | binding |  |  | Ki | 9.08 µM |
| CN1CC[C@]2(C)c3cc(OC(=O)Nc4ccccc4)ccc3N(C)[C@H]12 |  |  | human | single dose, nausea and vomiting | dose-limiting dose | 160 mg |
| C[C@]12CC[C@H](n3ccnc3)CC1=CC[C@@H]1[C@@H]2CC[C@]2(C)C(n3cnc4ccccc43)=CC[C@@H]12 |  |  | male CD-1 mice | oral, dose not given | oral bioavailability | 49.5% |
| O=C(O)C(F)(F)C(F)(F)C(F)(F)C(F)(F)C(F)(F)C(F)(F)C(F)(F)F |  |  | human |  | half-life | 24000 h |
| Cc1cc(O)ccc1Cl |  |  |  |  | log Kow | 3.1 |
| COC(=O)C(N)Cc1ccc(OP2(=O)COC(Cn3ccc(N)nc3=O)CO2)cc1 (stereo not shown) |  |  | PBS | pH 6.5, Sp isomer | half-life | 1.52 h |
| CCN(CCO)CCCC(C)Nc1ccnc2cc(Cl)ccc12 (stereo not shown) |  |  | human |  | blood-to-plasma ratio | 7.2 |
| O=C(O)C(F)(F)C(F)(F)C(F)(F)C(F)(F)F |  |  | plasma |  | plasma fraction unbound | 0.044 |
| NC1CCCCC1N.O=C([O-])C(=O)[O-].[Pt+2] (stereo not shown) |  | measured: total platinum | mouse, plasma | intravenous, 8.34 mg Pt/kg | C0 | 50.1 µg Pt/mL |
| CCOc1ccccc1OCCN[C@H](C)Cc1ccc(OC)c(S(N)(=O)=O)c1 |  |  | human, plasma | concentration not given, median of reported values | Cmax | 0.034 µM |
| CN(C)CCCN1c2ccccc2CCc2ccc(Cl)cc21 |  |  | dog |  | fraction unbound | 0.004 |
| C#CCOc1ccc(-c2nc3cc(NC(=O)[C@H](N)Cc4ccccc4)ccc3o2)cc1 |  |  | mouse, plasma |  | unbound fraction | < 0.4% |
| CCCCCOc1ccc(-c2ccc(-c3ccc(C(=O)N[C@H]4C[C@@H](O)[C@@H](O)NC(=O)[C@@H]5[C@@H](O)[C@@H](C)CN5C(=O)[C@H]([C@@H](C)O)NC(=O)[C@H]([C@H](O)[C@@H](O)c5ccc(O)cc5)NC(=O)[C@@H]5C[C@@H](O)CN5C(=O)[C@H]([C@@H](C)O)NC4=O)cc3)cc2)cc1 |  |  | end-stage renal disease | 50 mg single dose | AUC(0-inf) | 58000 ± 20200 ng·h/mL |
| CC(=O)c1c(C)c2cnc(Nc3ccc(N4CCNCC4)cn3)nc2n(C2CCCC2)c1=O |  |  | male rat |  | maximum tolerated dose | 30 mg/kg |
| Cc1ccc2ccccc2c1 |  |  | zebrafish embryos, whole embryo | 76.65 ng/well, 48 hpf, single exposure | amount in tissue | 0.161 ng/well and 0.116 ng/well and 0.154 ng/well |
| CC(=O)CC(c1ccccc1)c1c(O)c2ccccc2oc1=O (stereo not shown) |  |  | dog |  | fraction unbound | 0.384 |
| O=C(O)C(F)(F)C(F)(F)C(F)(F)F |  |  | human |  | half-life | 96 h |
| C[C@]1(CO)Cc2ncn(-c3ccc(C#N)c(Cl)c3)c2C(=O)O1 |  |  | patients with CKD | 10 mg | hyperkalaemia incidence | 15% |
| O=C(O)C(F)(F)C(F)(F)C(F)(F)C(F)(F)C(F)(F)C(F)(F)C(F)(F)F |  | conductometry, literature value |  |  | pKa | 1.31 |
| NS(=O)(=O)Cc1noc2ccccc12 |  |  | dog |  | fraction unbound | 0.428 |

| SMILES | tested on | test | test system | conditions | measurement | value |
| --- | --- | --- | --- | --- | --- | --- |
| Nc1ccc(C(=O)O)cc1 |  |  | dogs and rats |  | LD50 | > 2000 mg/kg |
| Cc1ccc(C(=O)c2cc(O)c(O)c([N+](=O)[O-])c2)cc1 |  |  | dog |  | fraction unbound | 0.05 |
| c1ccc2c(c1)ccc1c3ccccc3ccc21 |  |  |  | experimental mean | water solubility | 0.012 µM |
| COC(=O)[C@@H](N)Cc1ccc(OP2(=O)CO[C@@H](Cn3cnc4c(N)ncnc43)CO2)cc1 (stereo partly shown) |  |  | PBS | pH 6.5, Rp isomer | half-life | 5.5 h |
| c1cc2c3c(cccc3c1)CC2 |  |  | zebrafish embryos, whole embryo | 385.5 ng/well, 48 hpf, single exposure | amount in tissue | 2.1 ng/well and 1.81 ng/well and 1.49 ng/well |
| CCCCCOc1ccc(-c2cc(-c3ccc(C(=O)N[C@H]4C[C@@H](O)[C@@H](O)NC(=O)[C@@H]5[C@@H](O)[C@@H](C)CN5C(=O)[C@H]([C@H](O)CC(N)=O)NC(=O)[C@H]([C@H](O)[C@@H](O)c5ccc(O)c(OS(=O)(=O)O)c5)NC(=O)[C@@H]5C[C@@H](O)CN5C(=O)[C@H]([C@@H](C)O)NC4=O)cc3)no2)cc1 |  |  | human, plasma |  | fu | < 0.2% |
| N.N.O=C([O-])C1(C(=O)[O-])CCC1.[Pt+2] |  |  | plasma | literature data | free Cmax | 9.78 µM |
| c1cc2ccc3cccc4ccc(c1)c2c34 |  | substrate | human liver microsomes |  | Km | 0.144 µM |
| CCCN1CCCC[C@H]1C(=O)Nc1c(C)cccc1C |  |  | adult rat, sciatic nerve block model |  | LD50 | 56 ± 6 mg/kg |
| CC(=O)C[C@@H](c1ccccc1)c1c(O)c2ccccc2oc1=O |  |  | human, fasted | oral, 15 mg single dose, together with: racemic warfarin 30 mg | Tmax | 1.33 h |
| Fc1ccc([C@@H]2CCNC[C@H]2COc2ccc3c(c2)OCO3)cc1 |  |  | dog |  | fraction unbound | 0.004 |
| CC(C)OC(=O)[C@@H](N)Cc1ccc(OP2(=O)CO[C@@H](Cn3ccc(N)nc3=O)CO2)cc1 (stereo partly shown) |  |  | PBS | pH 6.5, Rp isomer | half-life | 12.8 h |
| C[C@H](NP(=O)(O)OC[C@H]1O[C@@](C#N)(c2ccc3c(N)ncnn23)[C@H](O)[C@@H]1O)C(=O)O |  |  | human | intravenous infusion, 0.5 h infusion | Tmax | 0.75 h |
| O=S(=O)(c1ccc(O)cc1)c1ccc(O)cc1 |  |  | human volunteers | oral, 0.1 mg/kg deuterated compound | Tmax | 0.7 h |
| Brc1ccc(Oc2c(Br)cc(Br)cc2Br)c(Br)c1 |  |  |  | 25 °C | water solubility | 0.04 µg/mL |
| COc1ccc(C(CN(C)C)C2(O)CCCCC2)cc1 (stereo not shown) |  |  | mouse |  | fraction unbound | 0.19 |
| N.O=C(O)C(F)(F)C(F)(F)C(F)(F)C(F)(F)C(F)(F)C(F)(F)C(F)(F)F | CYP1A2 | inhibitor |  | Tox21 screening | IC50 | inactive |
| COc1ccc2c(c1OC)CN1CCc3cc4c(cc3C1=C2)OCO4 |  |  | rat | oral | LD50 | > 2000 mg/kg |
| FC1(F)C(F)(F)C(F)(F)C2(F)C(F)(C1(F)F)C(F)(F)C(F)(F)C1(F)C(F)(F)C(F)(F)C(F)(F)C(F)(F)C12F (stereo not shown) | CYP2D6 | inhibitor |  | Tox21 screening | IC50 | inactive |
| OC(Cn1cncn1)(Cn1cncn1)c1ccc(F)cc1F |  |  | mouse | dose not given | elimination half-life | 5 h |
| NC(=O)c1nc(F)c[nH]c1=O |  |  | hamster | intraperitoneal, 6.25 mg | lung concentration | 50.2 µg/g |
| O=C(O)C(F)(F)C(F)(F)C(F)(F)C(F)(F)C(F)(F)C(F)(F)F |  |  | plasma |  | plasma fraction unbound | 0.0004 |
| O=C(O)C(F)F |  | potentiometry |  |  | pKa | 1.24 |
| Cc1c(C(=O)NCCO)nn(-c2ccc(Cl)cc2Cl)c1-c1ccc(Br)cc1 | CB1 receptor | binding |  |  | Ki | 1.12 µM |
| C[C@@H](O[C@H]1OCCN(Cc2n[nH]c(=O)[nH]2)[C@H]1c1ccc(F)cc1)c1cc(C(F)(F)F)cc(C(F)(F)F)c1 |  |  | dog |  | fraction unbound | 0.001 |
| Clc1cc2c(cc1Cl)Oc1cc(Cl)c(Cl)cc1O2 |  |  | mouse |  | half-life | 192 to 288 h |

Some of these lines once more:
| SMILES | tested on | test | test system | conditions | measurement | value |
| --- | --- | --- | --- | --- | --- | --- |
| O=C(O)C(F)(F)C(F)(F)C(F)(F)F |  |  | human |  | half-life | 96 h |
| Clc1cc2c(cc1Cl)Oc1cc(Cl)c(Cl)cc1O2 |  |  | mouse |  | half-life | 192 to 288 h |
| C[C@]1(CO)Cc2ncn(-c3ccc(C#N)c(Cl)c3)c2C(=O)O1 |  |  | patients with CKD | 10 mg | hyperkalaemia incidence | 15% |
| COC(=O)C(N)Cc1ccc(OP2(=O)COC(Cn3ccc(N)nc3=O)CO2)cc1 (stereo not shown) |  |  | PBS | pH 6.5, Sp isomer | half-life | 1.52 h |
| N.O=C(O)C(F)(F)C(F)(F)C(F)(F)C(F)(F)C(F)(F)C(F)(F)C(F)(F)F | CYP1A2 | inhibitor |  | Tox21 screening | IC50 | inactive |
